{"data": "Measurements of several laboratories", "note": "Parts stem from different laboratories: compare values within a part only. Substitutions count along the parent as printed."}
{"data": "Sample 1", "target": "Fragile X messenger ribonucleoprotein 1, C-terminal low-complexity region (Fmr1, Mus musculus, UniProt P35922)", "technique": "RNA Bind-n-Seq", "form": "RNA", "medium": "in vitro", "concentration": "200 nM", "notes": "whole 134-nt RNA, ends assumed", "together with": "150 mM KCl", "reference": "input library", "reading": "higher = stronger binding", "shared flanks, not repeated": "GGGAGUUCUACAGUCCGACGAUC … UGGAAUUCUCGGGUGUCAAGG"}
{"Sequence": "GUCCUGUGCUACACAUCGUAUGUACCGAAUCGGGGCCCCCGGGCCCCCGGCCCCCGGGGAAAGUAUUAUGUUACGCCGUUCGGAUCUGCA", "log2 enrichment": -0.565}
{"Sequence": "UUUCUCUCACCAGGUACCAGGUCAUCAGUACACCAUCUGAUAUUUUCAUGGUGAUGGAAUAUGUCUCAGGAGGAGAGCUAUUUGAUUAUA", "log2 enrichment": -0.983}
{"Sequence": "UCCUCAAGUCCUGUGCUACACAUCGUAUGUACCGAAUCGGUUGGUUGGUUGGAAAGUAUUAUGUUACGCCGUUCGGAUCUGCACUUCCAG", "log2 enrichment": 0.39}
{"Sequence": "ACCAUGCAGGUGGGCACCUUUGGGAAGUGGGGCAAGGGGGGGAUAGGGAGGGGGGUAACACUUUGGGAACAGGUGGUCCCAGGUCGUUUC", "log2 enrichment": 0.959}
{"Sequence": "AGUCCUGUGCUACACAUCGUAUGUACCGAAUCGGGUUUUGGGUUUUGGGGUUUUGGGGAAAGUAUUAUGUUACGCCGUUCGGAUCUGCAC", "log2 enrichment": 0.694}
{"Sequence": "AAGUCCUGUGCUACACAUCGUAUGUACCGAAUCGGGAAAAAGGGUUUGGGUUUGGGAAAGUAUUAUGUUACGCCGUUCGGAUCUGCACUU", "log2 enrichment": 0.585}
{"Sequence": "CCUCAAGUCCUGUGCUACACAUCGUAUGUACCGAAUCGGGUGGUGGGGUGGGAAAGUAUUAUGUUACGCCGUUCGGAUCUGCACUUCCAG", "log2 enrichment": 1.13}
{"Sequence": "ACCAUGCAGGUGGGCAUCUUUGGGAAGUGGGGCAAGGGGGGGAUAGGGAGGGGGGUAACACUUUGGGAACAGGUGGUCCCCGGUCGUUUC", "log2 enrichment": 0.739}
{"Sequence": "CUCAAGUCCUGUGCUACACAUCGUAUGUACCGAAUCGGUGGAAAAAAAGGUGGAAAGUAUUAUGUUACGCCGUUCGGAUCUGCACUUCCA", "log2 enrichment": -0.129}
{"Sequence": "GUCCUGUGCUACACAUCGUAUGUACCGAAUCAAAUUUUUUUAAAUUUUUAAAUUUAAAAAAGUAUUAUGUUACGCCGUUCGGAUCUGCAC", "log2 enrichment": -1.3}
{"Sequence": "UCCUGUGCUACACAUCGUAUGUACCGAAUCGGGGAAAAAAGGAAAAAAGGGGAAAAAAGGAAAGUAUUAUGUUACGCCGUUCGGAUCUGC", "log2 enrichment": -0.332}
{"Sequence": "CUGUGCUACACAUCGUAUGUACCGAAUCGGGGUUUGGGGUUUUUUUGGGGAAAAAAAGGGGAAAGUAUUAUGUUACGCCGUUCGGAUCUG", "log2 enrichment": 0.0531}
{"Sequence": "UCCUGUGCUACACAUCGUAUGUACCGAAUCAAACCCCCCCAAACCCAAACCCCCCCAAAAAAGUAUUAUGUUACGCCGUUCGGAUCUGCA", "log2 enrichment": -0.191}
{"Sequence": "GUCCUGUGCUACACAUCGUAUGUACCGAAUCGGGGUUUGGGGUGGGGAAAAAAAGGGGAAAGUAUUAUGUUACGCCGUUCGGAUCUGCAC", "log2 enrichment": 0.516}
{"data": "Sample 2", "Substance": "PhoQ, residues 284 288 289 292 302 303 SIHLQL", "technique": "Sort-seq", "measured": "YFP reporter", "medium": "E. coli", "notes": "PhoQ-PhoP variant library", "together with": "10 µM Mg2+", "reference": "high Mg2+ state", "reading": "higher = stronger signaling"}
{"target": "PhoP, residues 12 14 15 18 19 QYFSL (Escherichia coli, UniProt P23836)", "fold induction": 8.03}
{"target": "PhoP, residues 12 14 15 18 19 NYFRM (Escherichia coli, UniProt P23836)", "fold induction": 6.51}
{"target": "PhoP, residues 12 14 15 18 19 TQALL (Escherichia coli, UniProt P23836)", "fold induction": 11.3}
{"data": "Sample 3", "target": "Sal-like protein 4, full length isoform A (SALL4, Homo sapiens, UniProt Q9UJQ4, residues 1-1053)", "technique": "universal PBM", "form": "double-stranded DNA, one strand shown", "medium": "in vitro", "concentration": "600 nM", "notes": "8-mer, flanks averaged, mean of replicates", "reading": "higher = stronger binding", "sequence of UniProt Q9UJQ4 (whole entry, looked up)": "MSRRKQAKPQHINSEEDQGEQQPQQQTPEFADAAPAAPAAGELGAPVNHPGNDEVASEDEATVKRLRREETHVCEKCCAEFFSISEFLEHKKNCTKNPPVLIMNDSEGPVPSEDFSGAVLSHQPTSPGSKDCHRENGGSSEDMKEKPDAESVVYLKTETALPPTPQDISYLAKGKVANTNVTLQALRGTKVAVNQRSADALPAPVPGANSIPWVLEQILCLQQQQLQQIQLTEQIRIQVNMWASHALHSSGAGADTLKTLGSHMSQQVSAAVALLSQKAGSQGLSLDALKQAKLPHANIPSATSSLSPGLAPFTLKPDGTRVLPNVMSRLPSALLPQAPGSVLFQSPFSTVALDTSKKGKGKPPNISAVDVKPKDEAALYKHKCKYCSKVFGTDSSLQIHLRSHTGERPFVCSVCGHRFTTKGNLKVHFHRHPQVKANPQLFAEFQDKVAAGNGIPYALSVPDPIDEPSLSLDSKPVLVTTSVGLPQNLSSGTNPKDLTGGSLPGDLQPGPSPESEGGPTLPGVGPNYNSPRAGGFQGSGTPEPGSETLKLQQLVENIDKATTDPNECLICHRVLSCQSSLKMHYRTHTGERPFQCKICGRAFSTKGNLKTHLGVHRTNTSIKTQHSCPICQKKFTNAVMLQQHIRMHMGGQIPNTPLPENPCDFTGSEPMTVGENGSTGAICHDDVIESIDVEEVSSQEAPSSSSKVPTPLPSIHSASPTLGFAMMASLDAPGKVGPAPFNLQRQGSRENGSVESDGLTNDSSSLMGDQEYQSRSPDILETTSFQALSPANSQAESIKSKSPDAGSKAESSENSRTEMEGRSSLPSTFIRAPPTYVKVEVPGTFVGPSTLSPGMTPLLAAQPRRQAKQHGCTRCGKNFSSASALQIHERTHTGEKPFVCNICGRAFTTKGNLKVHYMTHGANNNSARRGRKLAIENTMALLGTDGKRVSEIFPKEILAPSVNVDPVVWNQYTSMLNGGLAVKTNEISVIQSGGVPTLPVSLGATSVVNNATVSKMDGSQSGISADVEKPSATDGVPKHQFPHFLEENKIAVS"}
{"Sequence": "CTAGGCTC", "E-score": -0.264}
{"Sequence": "ACCTTCAC", "E-score": -0.0608}
{"Sequence": "GGCTCTGA", "E-score": -0.0711}
{"Sequence": "ACAATGCG", "E-score": -0.0183}
{"Sequence": "CCCTCTGC", "E-score": -0.263}
{"Sequence": "ATTGTCGC", "E-score": 0.105}
{"Sequence": "TGAAACAA", "E-score": 0.262}
{"Sequence": "ATCTCGCG", "E-score": 0.0444}
{"Sequence": "ACGCAGTA", "E-score": -0.0356}
{"Sequence": "AAGATCCC", "E-score": -0.0766}
{"Sequence": "AGAACACG", "E-score": 0.0218}
{"Sequence": "CGTGAGAG", "E-score": -0.206}
{"Sequence": "ATCTACAC", "E-score": 0.0969}
{"Sequence": "CCTCAAGG", "E-score": -0.262}
{"Sequence": "ACTGAACA", "E-score": 0.0958}
{"Sequence": "TACGTGCA", "E-score": -0.0568}
{"Sequence": "GTTGCATA", "E-score": 0.0886}
{"Sequence": "TGCGATAA", "E-score": 0.283}
{"Sequence": "AAGGGAAC", "E-score": -0.131}
{"Sequence": "AACATTGT", "E-score": 0.238}
{"Sequence": "ATTCAAGA", "E-score": 0.168}
{"Sequence": "ACCAGTAG", "E-score": -0.0798}
{"Sequence": "GGCGGACC", "E-score": -0.393}
{"data": "Sample 4", "target": "MAFG, bZIP domain (human)", "technique": "DHFR protein complementation", "medium": "yeast", "notes": "single substitutions, most at no-binding floor", "reference": "wild-type JUN-FOS pair", "reading": "higher = stronger binding", "parent": "JUN, bZIP domain (human); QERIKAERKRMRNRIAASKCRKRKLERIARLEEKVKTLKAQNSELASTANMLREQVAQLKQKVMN; partner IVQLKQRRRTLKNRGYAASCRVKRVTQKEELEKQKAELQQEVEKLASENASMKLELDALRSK"}
{"Change": "L31Q", "binding fitness": "-1.37 natural log"}
{"Change": "L45Q", "binding fitness": "-1.22 natural log"}
{"Change": "A29C", "binding fitness": "-1.49 natural log"}
{"Change": "E32R", "binding fitness": "-1.39 natural log"}
{"Change": "E33D", "binding fitness": "-1.14 natural log"}
{"Change": "R53S", "binding fitness": "-1.22 natural log"}
{"Change": "A40M", "binding fitness": "-1.54 natural log"}
{"Change": "R30K", "binding fitness": "-1.41 natural log"}
{"Change": "V35S", "binding fitness": "-1.53 natural log"}
{"Change": "R53P", "binding fitness": "-1.47 natural log"}
{"Change": "V35C", "binding fitness": "-1.54 natural log"}
{"Change": "Q41I", "binding fitness": "-1.46 natural log"}
{"Change": "N42Y", "binding fitness": "-1.42 natural log"}
{"Change": "T48S", "binding fitness": "-1.43 natural log"}
{"Change": "Q41S", "binding fitness": "-1.5 natural log"}
{"Change": "N42H", "binding fitness": "-1.32 natural log"}
{"Change": "E44Y", "binding fitness": "-1.55 natural log"}
{"Change": "Q41E", "binding fitness": "-1.24 natural log"}
{"Change": "E33I", "binding fitness": "-0.985 natural log"}
{"Change": "E54V", "binding fitness": "-1.4 natural log"}
{"data": "Sample 5", "target": "CCNB1, cyclin fold, Cln2 fusion (human)", "technique": "yeast growth competition, sequencing", "medium": "yeast", "notes": "strong parent motif", "reference": "not given", "reading": "higher = stronger binding", "parent": "INSM1 docking peptide (human); PKAIRKLHFEDEV"}
{"Change": "K6G", "normalised enrichment score": 0.293}
{"Change": "F9D", "normalised enrichment score": -0.219}
{"Change": "L7A", "normalised enrichment score": 0.161}
{"Change": "K2H", "normalised enrichment score": 2.76}
{"Change": "E12C", "normalised enrichment score": 1.47}
{"Change": "D11M", "normalised enrichment score": 0.874}
{"Change": "R5M", "normalised enrichment score": 2.28}
{"Change": "E10Q", "normalised enrichment score": 1.16}
{"Change": "E12Y", "normalised enrichment score": 1.06}
{"Change": "I4W", "normalised enrichment score": 0.376}
{"Change": "K2F", "normalised enrichment score": 3.37}
{"Change": "D11N", "normalised enrichment score": 1.54}
{"Change": "I4P", "normalised enrichment score": 0.568}
{"Change": "K2Y", "normalised enrichment score": 3.22}
{"Change": "E12P", "normalised enrichment score": 1.43}
{"Change": "A3H", "normalised enrichment score": 1.49}
{"Change": "R5T", "normalised enrichment score": 1.16}
{"Change": "L7G", "normalised enrichment score": 0.538}
{"Change": "H8T", "normalised enrichment score": 3.35}
{"Change": "A3M", "normalised enrichment score": 1.79}
{"Change": "L7I", "normalised enrichment score": 0.888}
{"Change": "E10M", "normalised enrichment score": 1.14}
{"Change": "D11W", "normalised enrichment score": 0.584}
{"Change": "A3C", "normalised enrichment score": 4.26}
{"Change": "K6M", "normalised enrichment score": 1.62}
{"data": "Sample 6", "target": "Prothrombin, mature alpha-thrombin (F2, Homo sapiens, UniProt P00734)", "technique": "aptamer microarray, sandwich", "form": "DNA with 2'F-ANA", "medium": "in vitro", "concentration": "200 nM", "notes": "whole 15-mer aptamer, many near background", "together with": "Cy3 exosite-II aptamer, 400 nM", "reading": "higher = stronger binding", "sequence": "GGTTGGTGTGGTTGG"}
{"Modification": "2'F-ANA at 1 2 5 7 9 11", "mean fluorescence intensity [a.u.]": 54.3}
{"Modification": "2'F-ANA at 1 3 7 11 12", "mean fluorescence intensity [a.u.]": 470}
{"Modification": "2'F-ANA at 1 6 7 8 9 13 14 15", "mean fluorescence intensity [a.u.]": 57.1}
{"Modification": "2'F-ANA at 1 2 4 8 9 13 14", "mean fluorescence intensity [a.u.]": 50.8}
{"Modification": "2'F-ANA at 1 2 3 4 5 7 10 11 13 14", "mean fluorescence intensity [a.u.]": 44}
{"Modification": "2'F-ANA at 3 4 5 6 8 10 12 14 15", "mean fluorescence intensity [a.u.]": 53}
{"Modification": "2'F-ANA at 1 2 4 6 7 9 10 11 13 14 15", "mean fluorescence intensity [a.u.]": 49.5}
{"Modification": "2'F-ANA at 2 4 5 8 12 13", "mean fluorescence intensity [a.u.]": 106}
{"Modification": "2'F-ANA at 1 3 6 7 8 12 13 14", "mean fluorescence intensity [a.u.]": 130}
{"Modification": "2'F-ANA at 1 2 7 8 13", "mean fluorescence intensity [a.u.]": 138}
{"Modification": "2'F-ANA at 5 7 8 12 14 15", "mean fluorescence intensity [a.u.]": 49.3}
{"Modification": "2'F-ANA at 3 5 7 9 10 11 14 15", "mean fluorescence intensity [a.u.]": 54.7}
{"Modification": "2'F-ANA at 1 2 3 5 7 12", "mean fluorescence intensity [a.u.]": 144}
{"Modification": "2'F-ANA at 1 2 3 4 5 6 10 15", "mean fluorescence intensity [a.u.]": 51.5}
{"Modification": "2'F-ANA at 1 6 7 8 10 11 13", "mean fluorescence intensity [a.u.]": 52.5}
{"Modification": "2'F-ANA at 1 2 5 6 7 9 10 12 13 14 15", "mean fluorescence intensity [a.u.]": 50.2}
{"Modification": "2'F-ANA at 5 9 11 15", "mean fluorescence intensity [a.u.]": 61.4}
{"Modification": "2'F-ANA at 4 6 7 8 11 12 14 15", "mean fluorescence intensity [a.u.]": 105}
{"Modification": "2'F-ANA at 1 2 6 7 8 9 10 12 14 15", "mean fluorescence intensity [a.u.]": 50.9}
{"Modification": "2'F-ANA at 4 5 9 11 12 13 14 15", "mean fluorescence intensity [a.u.]": 46.3}
{"Modification": "2'F-ANA at 3 4 8 9 10 12 13 14 15", "mean fluorescence intensity [a.u.]": 202}
{"Modification": "2'F-ANA at 1 2 8 10 12 15", "mean fluorescence intensity [a.u.]": 71.3}
{"Modification": "2'F-ANA at 11 12 13 14", "mean fluorescence intensity [a.u.]": 263}
{"Modification": "2'F-ANA at 2 4 8 10 11 12 15", "mean fluorescence intensity [a.u.]": 102}
{"Modification": "2'F-ANA at 1 2 3 4 5 6 9 12 15", "mean fluorescence intensity [a.u.]": 125}
{"note": "Repeated from above (sample 5):"}
{"Change": "K2Y", "normalised enrichment score": 3.22}
{"Change": "E10M", "normalised enrichment score": 1.14}
{"Change": "H8T", "normalised enrichment score": 3.35}
{"Change": "L7A", "normalised enrichment score": 0.161}
{"Change": "K2H", "normalised enrichment score": 2.76}
{"Change": "R5T", "normalised enrichment score": 1.16}
{"Change": "E12C", "normalised enrichment score": 1.47}
{"Change": "A3M", "normalised enrichment score": 1.79}
